Measured values pooled from the literature.
Protocols differ between the studies behind these lines.
Organism: Pseudomonas aeruginosa

| Compound | assay | test system | conditions | MIC |
| --- | --- | --- | --- | --- |
| CC[C@H](C)[C@H](NC(=O)[C@H](CCCCN)NC(=O)[C@H](CCC(=O)O)NC(=O)[C@H](CCCCN)NC(=O)[C@H](CO)NC(=O)[C@H](CCCCN)NC(=O)[C@H](CCCNC(=N)N)NC(=O)[C@H](Cc1ccccc1)NC(=O)[C@H](Cc1ccccc1)NC(=O)[C@H](CC(=O)O)NC(=O)CNC(=O)[C@H](CC(C)C)NC(=O)[C@@H](N)CC(C)C)C(=O)NCC(=O)N[C@@H](CCCCN)C(=O)N[C@@H](CCC(=O)O)C(=O)N[C@@H](Cc1ccccc1)C(=O)N[C@@H](CCCCN)C(=O)N[C@@H](CCCNC(=N)N)C(=O)N[C@H](C(=O)N[C@H](C(=O)N[C@@H](CCC(N)=O)C(=O)N[C@@H](CCCNC(=N)N)C(=O)N[C@H](C(=O)N[C@@H](CCCCN)C(=O)N[C@@H](CC(=O)O)C(=O)N[C@@H](Cc1ccccc1)C(=O)N[C@@H](CC(C)C)C(=O)N[C@@H](CCCNC(=N)N)C(=O)N[C@@H](CC(N)=O)C(=O)N[C@@H](CC(C)C)C(=O)N[C@H](C(=O)N1CCC[C@H]1C(=O)N[C@@H](CCCNC(=N)N)C(=O)N[C@H](C(=O)N[C@@H](CCC(=O)O)C(=O)N[C@@H](CO)C(=O)O)[C@@H](C)O)C(C)C)[C@@H](C)CC)C(C)C)[C@@H](C)CC | – | PAO1 wild type, RPMI with 5% LB | – | 16 µM |
| CC[C@H](C)CCCCC(=O)N[C@@H](CCN)C(=O)N[C@H](C(=O)N[C@@H](CCN)C(=O)N[C@H]1CCNC(=O)[C@H]([C@@H](C)O)NC(=O)[C@H](CCN)NC(=O)[C@H](CCN)NC(=O)[C@H](CC(C)C)NC(=O)[C@@H](CC(C)C)NC(=O)[C@H](CCN)NC1=O)[C@@H](C)O | – | BAA-2797, multidrug-resistant | – | 4 µg/mL |
| CCN1CCC(CCNCc2cc3ccccc3nc2SCc2ccccc2)CC1 | microbial growth, broth dilution | MDR | – | 32 µg/mL |
| CC[C@H](C)[C@H](NC(=O)[C@H](Cc1c[nH]cn1)NC(=O)[C@H](CCCCNC(=O)[C@@H](NC(=O)[C@H](CCCCN)NC(=O)CSC[C@H](NC(=O)[C@H](Cc1ccccc1)NC(=O)[C@H](CCCCNC(=O)[C@H](CC(C)C)NC(=O)[C@H](CCCCN)NC(=O)[C@H](CCCCN)NC(=O)CCS[C@@H]1O[C@H](CO)[C@H](O)[C@H](O)[C@H]1O)NC(=O)[C@H](CC(C)C)NC(=O)[C@H](CCCCN)NC(=O)[C@H](CCCCN)NC(=O)C[C@@H]1O[C@@H](C)[C@@H](O)[C@@H](O)[C@@H]1O)C(N)=O)[C@@H](C)CC)NC(=O)[C@@H](NC(=O)[C@H](CCCCN)NC(=O)CSC[C@H](NC(=O)[C@H](Cc1ccccc1)NC(=O)[C@H](CCCCNC(=O)[C@H](CC(C)C)NC(=O)[C@H](CCCCN)NC(=O)[C@H](CCCCN)NC(=O)CCS[C@@H]1O[C@H](CO)[C@H](O)[C@H](O)[C@H]1O)NC(=O)[C@H](CC(C)C)NC(=O)[C@H](CCCCN)NC(=O)[C@H](CCCCN)NC(=O)C[C@@H]1O[C@@H](C)[C@@H](O)[C@@H](O)[C@@H]1O)C(N)=O)[C@@H](C)CC)C(N)=O | – | PAO1, LB medium | – | > 64 µM |
| N=C(N)NCCC[C@@H]1NC(=O)[C@H](CCCNC(=N)N)NC(=O)[C@H](CCCNC(=N)N)NC(=O)[C@H](CCCNC(=N)N)NC(=O)[C@H](Cc2c[nH]c3ccccc23)NC(=O)[C@H](CCCNC(=N)N)NC(=O)[C@H](CCCNC(=N)N)NC(=O)[C@@H](N)CCn2cc(nn2)C[C@@H](C(N)=O)NC1=O | – | ATCC 27853 | 24 h, 37 °C | 250 µg/mL |
| N=C(N)NCCC[C@@H]1NC(=O)[C@H](CCCCN)NC(=O)[C@H](CCCNC(=N)N)NC(=O)[C@H](CCCNC(=N)N)NC(=O)[C@H](CCCNC(=N)N)NC(=O)[C@H](CCCNC(=N)N)NC1=O | broth microdilution | PAO1 | 37 °C | > 114 µg/mL |
| CC[C@H](C)[C@H](NC(=O)[C@H](CCCNC(=N)N)NC(=O)[C@H](Cc1ccccc1)NC(=O)[C@H](CC(C)C)NC(=O)[C@H](CCCCN)NC(=O)[C@H](CO)NC(=O)[C@@H](NC(=O)[C@H](CC(C)C)NC(=O)[C@H](CCCCN)NC(=O)[C@H](C)NC(=O)[C@H](CC(N)=O)NC(=O)[C@H](CCCNC(=N)N)NC(=O)[C@H](Cc1ccc(O)cc1)NC(=O)[C@H](C)NC(=O)[C@@H](NC(=O)[C@H](CCCCN)NC(=O)[C@H](CC(N)=O)NC(=O)[C@H](CCCCN)NC(=O)[C@H](CC(C)C)NC(=O)[C@H](CO)NC(=O)[C@H](CC(C)C)NC(=O)[C@H](C)NC(=O)[C@H](C)NC(=O)[C@H](CO)NC(=O)[C@@H](NC(=O)[C@@H](NC(=O)[C@H](Cc1c[nH]c2ccccc12)NC(=O)[C@@H](NC(=O)[C@H](CO)NC(=O)[C@@H](NC(=O)[C@@H](N)CC(C)C)C(C)C)C(C)C)[C@@H](C)CC)[C@@H](C)CC)C(C)C)C(C)C)C(=O)N[C@@H](C)C(=O)N[C@@H](CC(C)C)C(=O)O | broth microdilution | ATCC 27853 | 24 h, 37 °C | 8 µg/mL |
| CC(C)C[C@H](NC(=O)[C@@H]1CSCC(=O)N[C@@H](CCCCN)C(=O)N[C@@H](CC(C)C)C(=O)N[C@@H](CCCCN)C(=O)N[C@H]2CCCCNC(=O)[C@H](CCCCN)NC(=O)[C@H](CC(C)C)NC(=O)[C@H](CCCCN)NC(=O)CSC[C@H](NC(=O)[C@H](CC(C)C)NC(=O)[C@H](CC(C)C)NC(=O)[C@H](CCCCN)NC2=O)C(=O)N[C@@H](CCCCN)C(=O)N[C@@H](CC(C)C)C(=O)N[C@@H](CCCCN)C(=O)N1)C(N)=O | – | PAO1 | 18 h | > 256 µg/mL |
| CC(C)[C@H](NC(=O)[C@H](CCCNC(=N)N)NC(=O)[C@H](CCCNC(=N)N)NC(=O)[C@@H](NC(=O)[C@H](C)NC(=O)[C@H](CC(N)=O)NC(=O)[C@H](CCCNC(=N)N)NC(=O)[C@@H](NC(=O)[C@H](CCCNC(=N)N)NC(=O)[C@H](CCCNC(=N)N)NC(=O)[C@@H](NC(=O)[C@@H](NC(=O)[C@H](CCCNC(=N)N)NC(=O)[C@H](CCCNC(=N)N)NC(=O)[C@H](Cc1c[nH]c2ccccc12)NC(=O)[C@H](Cc1c[nH]c2ccccc12)NC(=O)CN)[C@@H](C)O)C(C)C)C(C)C)C(C)C)C(=O)O | – | CMCC 10104 | 18 h, 37 °C | 16 µg/mL |
| CC1C(=NNC(=O)c2ccncc2)C(C)C(c2ccc(Br)cc2)OC1c1ccc(Br)cc1 (stereo not drawn) | microbial growth, broth dilution | MTCC741 | 24 h | 6.3 µg/mL |
| CC[C@H](C)[C@H](NC(=O)[C@H](CC(C)C)NC(=O)[C@H](CO)NC(=O)[C@H](CC(C)C)NC(=O)[C@@H](N)CCSC)C(=O)N[C@@H](Cc1ccccc1)C(=O)N[C@@H](CC(C)C)C(=O)N[C@@H](Cc1c[nH]cn1)C(=O)N[C@@H](CCCNC(=N)N)C(=O)N[C@@H](CC(C)C)C(=O)N[C@@H](CCCCN)C(=O)N[C@@H](CO)C(=O)N[C@@H](CCSC)C(=O)N[C@@H](CCCNC(=N)N)C(=O)N[C@@H](CCCCN)C(=O)N[C@@H](CCCNC(=N)N)C(=O)N[C@@H](CC(C)C)C(=O)N[C@@H](CC(=O)O)C(=O)N[C@@H](CCCNC(=N)N)C(=O)N[C@@H](CCCCN)C(=O)N[C@@H](CC(C)C)C(=O)N[C@@H](CCCNC(=N)N)C(=O)N[C@@H](CC(C)C)C(=O)N[C@@H](Cc1c[nH]c2ccccc12)C(=O)N[C@@H](Cc1c[nH]cn1)C(=O)N[C@@H](CCCNC(=N)N)C(=O)N[C@@H](CCCCN)C(=O)N[C@@H](CC(N)=O)C(=O)N[C@@H](Cc1ccc(O)cc1)C(=O)N1CCC[C@H]1C(=O)O | – | ATCC 27853 | – | 20 µg/mL |
| CC(C)C[C@@H]1NC(=O)[C@H](CCCCN)NC(=O)CSC[C@@H](C(=O)N[C@@H](CCCCN)C(N)=O)NC(=O)[C@H](CCCCN)NC(=O)[C@H](CC(C)C)NC(=O)[C@H](CC(C)C)NC(=O)[C@@H]2CSCC(=O)N[C@@H](CCCCN)C(=O)N[C@@H](CC(C)C)C(=O)N[C@@H](CCCCN)C(=O)N[C@@H](CCCCNC(=O)[C@H](CCCCN)NC1=O)C(=O)N[C@@H](CCCCN)C(=O)N[C@@H](CC(C)C)C(=O)N[C@@H](CC(C)C)C(=O)N2 | – | PAO1 | 18 h | 64 µg/mL |
